Results gathered from unrelated publications.
Each numbered part is a random draw from the data of one study; scales do not carry over between parts.
UniProt P42679, sequence (whole entry, looked up): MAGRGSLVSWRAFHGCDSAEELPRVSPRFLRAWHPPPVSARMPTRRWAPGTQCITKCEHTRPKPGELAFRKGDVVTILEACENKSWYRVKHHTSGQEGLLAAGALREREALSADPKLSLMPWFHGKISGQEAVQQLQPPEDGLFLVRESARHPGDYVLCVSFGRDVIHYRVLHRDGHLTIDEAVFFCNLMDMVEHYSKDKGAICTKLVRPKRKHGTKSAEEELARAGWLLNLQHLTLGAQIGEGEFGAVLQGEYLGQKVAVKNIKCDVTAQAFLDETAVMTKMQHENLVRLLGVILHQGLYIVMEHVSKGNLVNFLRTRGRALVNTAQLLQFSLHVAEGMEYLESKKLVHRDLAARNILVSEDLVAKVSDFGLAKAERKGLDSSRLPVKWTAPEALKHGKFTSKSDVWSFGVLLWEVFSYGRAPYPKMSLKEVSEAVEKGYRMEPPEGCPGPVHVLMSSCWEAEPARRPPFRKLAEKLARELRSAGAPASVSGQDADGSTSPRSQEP
UniProt P08069, sequence (whole entry, looked up): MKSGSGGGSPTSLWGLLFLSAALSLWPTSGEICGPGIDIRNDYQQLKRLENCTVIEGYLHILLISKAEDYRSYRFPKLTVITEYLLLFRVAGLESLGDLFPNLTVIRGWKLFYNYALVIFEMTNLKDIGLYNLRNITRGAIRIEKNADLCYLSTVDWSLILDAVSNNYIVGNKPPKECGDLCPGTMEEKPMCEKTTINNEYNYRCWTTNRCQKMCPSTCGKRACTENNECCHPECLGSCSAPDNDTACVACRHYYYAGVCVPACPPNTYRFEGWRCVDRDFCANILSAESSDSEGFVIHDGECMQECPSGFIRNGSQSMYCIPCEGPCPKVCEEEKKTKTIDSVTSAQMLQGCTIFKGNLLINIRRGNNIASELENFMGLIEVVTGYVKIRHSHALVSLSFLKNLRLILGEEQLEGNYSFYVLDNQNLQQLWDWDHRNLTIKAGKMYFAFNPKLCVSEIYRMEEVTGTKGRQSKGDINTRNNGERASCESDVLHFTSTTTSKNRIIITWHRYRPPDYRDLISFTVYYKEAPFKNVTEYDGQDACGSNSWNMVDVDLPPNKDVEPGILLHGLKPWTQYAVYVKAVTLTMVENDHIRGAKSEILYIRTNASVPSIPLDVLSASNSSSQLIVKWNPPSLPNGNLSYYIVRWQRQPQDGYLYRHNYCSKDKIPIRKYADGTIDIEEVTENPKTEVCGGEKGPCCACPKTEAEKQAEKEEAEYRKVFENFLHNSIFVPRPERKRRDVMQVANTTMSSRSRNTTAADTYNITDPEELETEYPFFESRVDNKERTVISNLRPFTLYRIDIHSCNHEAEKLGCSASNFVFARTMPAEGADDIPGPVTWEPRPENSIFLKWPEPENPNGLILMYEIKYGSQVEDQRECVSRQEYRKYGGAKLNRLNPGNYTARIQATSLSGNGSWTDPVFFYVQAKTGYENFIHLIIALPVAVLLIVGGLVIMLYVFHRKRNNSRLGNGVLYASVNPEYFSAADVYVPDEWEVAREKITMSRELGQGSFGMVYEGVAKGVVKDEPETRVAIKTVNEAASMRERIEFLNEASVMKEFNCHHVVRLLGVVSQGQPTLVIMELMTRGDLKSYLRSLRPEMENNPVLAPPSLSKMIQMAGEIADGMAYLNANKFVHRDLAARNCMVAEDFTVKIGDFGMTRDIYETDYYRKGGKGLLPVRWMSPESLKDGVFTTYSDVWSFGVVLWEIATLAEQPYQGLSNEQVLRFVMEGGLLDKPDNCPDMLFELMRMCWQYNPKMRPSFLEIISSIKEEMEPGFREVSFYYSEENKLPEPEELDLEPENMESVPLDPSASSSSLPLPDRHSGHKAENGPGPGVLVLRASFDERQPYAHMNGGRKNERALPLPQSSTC
UniProt Q06418, sequence (whole entry, looked up): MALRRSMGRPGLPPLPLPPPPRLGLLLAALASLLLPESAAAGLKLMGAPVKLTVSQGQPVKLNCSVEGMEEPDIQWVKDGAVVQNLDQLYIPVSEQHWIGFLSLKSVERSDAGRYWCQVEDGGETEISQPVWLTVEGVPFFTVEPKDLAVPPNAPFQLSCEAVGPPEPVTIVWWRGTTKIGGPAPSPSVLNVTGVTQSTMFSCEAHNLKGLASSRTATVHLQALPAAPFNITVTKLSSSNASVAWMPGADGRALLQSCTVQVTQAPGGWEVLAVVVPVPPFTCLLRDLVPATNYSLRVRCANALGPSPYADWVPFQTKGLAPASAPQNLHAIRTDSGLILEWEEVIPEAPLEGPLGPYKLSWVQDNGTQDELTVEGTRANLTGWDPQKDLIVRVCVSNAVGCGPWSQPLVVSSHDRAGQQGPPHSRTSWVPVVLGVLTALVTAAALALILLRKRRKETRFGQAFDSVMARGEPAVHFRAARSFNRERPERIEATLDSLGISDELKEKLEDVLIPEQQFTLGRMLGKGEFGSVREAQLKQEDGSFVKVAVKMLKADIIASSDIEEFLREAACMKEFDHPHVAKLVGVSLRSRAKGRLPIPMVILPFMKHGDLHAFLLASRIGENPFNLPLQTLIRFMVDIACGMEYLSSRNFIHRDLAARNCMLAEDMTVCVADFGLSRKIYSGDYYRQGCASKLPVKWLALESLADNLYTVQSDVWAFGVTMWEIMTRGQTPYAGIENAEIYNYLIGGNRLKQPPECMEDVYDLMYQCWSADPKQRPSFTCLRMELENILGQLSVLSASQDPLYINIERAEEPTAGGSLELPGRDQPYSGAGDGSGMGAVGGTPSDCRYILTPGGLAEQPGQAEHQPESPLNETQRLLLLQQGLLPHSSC

Set 1
Target: PABPC1L2, full length, GST fusion (mouse, UniProt A0ABA7IW68)
Technique: RNAcompete
Molecule type: RNA
Sample: in vitro
Concentration: 20 nM
Notes: 7-mer, probes averaged, single round
Baseline: mean of 7-mers
Reading: higher = stronger binding
Construct (chain): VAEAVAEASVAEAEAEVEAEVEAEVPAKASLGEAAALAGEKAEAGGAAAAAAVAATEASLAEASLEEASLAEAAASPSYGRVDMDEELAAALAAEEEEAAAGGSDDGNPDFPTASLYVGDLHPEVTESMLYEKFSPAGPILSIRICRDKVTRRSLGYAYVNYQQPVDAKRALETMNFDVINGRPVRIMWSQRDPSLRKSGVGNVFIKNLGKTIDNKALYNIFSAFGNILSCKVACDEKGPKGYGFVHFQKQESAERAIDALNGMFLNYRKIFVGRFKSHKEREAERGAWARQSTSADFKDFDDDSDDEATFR
`GAACCUU` has a 7-mer Z-score of -0.206.
For `UAUGAGC`, the 7-mer Z-score was -0.202.
`CGGAUGU` gave a 7-mer Z-score of -0.13.
With `UCUGGCA` the 7-mer Z-score was -0.0863.
With `UGAGAUU` the 7-mer Z-score was -0.112.
`GCUCUUG` has a 7-mer Z-score of -0.322.
For `GUCAUUC`, the 7-mer Z-score was -0.309.
For `GUGACGG`, the 7-mer Z-score was 0.137.

Set 2
SMILES: CC(C)(O)c1cncc(-c2nc3ccc(F)cc3n2C2CC2)c1
Observed: cell-free assay
Technique: competition with immobilised ligand
Concentration: 1 µM
For Tyrosine-protein kinase receptor TYRO3 (TYRO3, Homo sapiens, UniProt Q06418): remaining binding read 100%.
For Megakaryocyte-associated tyrosine-protein kinase (MATK, Homo sapiens, UniProt P42679): remaining binding read 100%.
For Receptor-type tyrosine-protein kinase FLT3 (FLT3, Homo sapiens, UniProt P36888, N841I): remaining binding read 100%.
Insulin-like growth factor 1 receptor (IGF1R, Homo sapiens, UniProt P08069) — remaining binding: 100%.

Set 3
Target: Serine/threonine-protein kinase 4 (STK4, Homo sapiens, UniProt Q13043)
UniProt Q13043, sequence (whole entry, looked up): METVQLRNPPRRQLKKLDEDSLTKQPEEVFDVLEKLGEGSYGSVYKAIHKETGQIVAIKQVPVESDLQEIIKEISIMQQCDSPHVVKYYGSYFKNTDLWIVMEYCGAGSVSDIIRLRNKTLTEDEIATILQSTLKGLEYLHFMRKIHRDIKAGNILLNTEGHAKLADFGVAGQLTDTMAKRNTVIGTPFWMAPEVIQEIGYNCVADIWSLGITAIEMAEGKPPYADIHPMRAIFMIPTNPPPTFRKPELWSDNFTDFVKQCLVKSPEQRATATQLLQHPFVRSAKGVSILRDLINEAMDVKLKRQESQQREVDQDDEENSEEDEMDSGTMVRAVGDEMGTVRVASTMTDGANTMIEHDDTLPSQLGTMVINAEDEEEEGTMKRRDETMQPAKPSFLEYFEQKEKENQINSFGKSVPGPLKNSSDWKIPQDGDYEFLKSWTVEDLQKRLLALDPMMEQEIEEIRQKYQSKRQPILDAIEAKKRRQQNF
Observed: enzyme activity
Mode: inhibitor
Concentration: 0.5 µM
Baseline: control
With O=C1NC(=O)C(c2cn(CCCO)c3ncccc23)=C1c1cnccn1 the remaining activity was 83.6%.
With COc1ccc(C(=O)Nc2sc3c(c2C(N)=O)CCCC3)cc1OC the remaining activity was 104%.
For COc1cc2ncnc(Nc3ccc(F)c(Cl)c3)c2cc1OCCCN1CCOCC1, the remaining activity was 101%.
C#Cc1cccc(Nc2ncnc3cc(OCCOC)c(OCCOC)cc23)c1 has a remaining activity of 97.4%.
Cc1ccc(Nc2nccc(N(C)c3ccc4c(C)n(C)nc4c3)n2)cc1S(N)(=O)=O gave a remaining activity of 98.4%.
CN(C)c1ccc(C=C2C(=O)Nc3ccccc32)cc1 has a remaining activity of 93.2%.
Cc1nc(-c2ccccc2)c(-c2ccncc2)o1 gave a remaining activity of 104%.
Cc1cccc(-c2[nH]c(C(C)(C)C)nc2-c2ccc3c(c2)OCO3)n1 gave a remaining activity of 98.7%.
The remaining activity of Nc1ncnc2n[nH]c(Nc3ccc(F)cc3)c12 is reported as 90.4%.
The remaining activity of CCOC(=O)c1c(C)[nH]c(/C=C2\C(=O)Nc3ccccc32)c1C is reported as 83.4%.
OCC(O)CCON=C1C(c2c(O)[nH]c3ccccc23)=Nc2ccccc21 (stereo not drawn) gave a remaining activity of 8.29%.
The remaining activity of O=C(Nc1cccc(Nc2cc(Nc3cccc(C(F)(F)F)c3)ncn2)c1)C1CC1 is reported as 99%.
The remaining activity of CO[C@H]1C[C@@H]2CC[C@@H](C)[C@@](O)(O2)C(=O)C(=O)N2CCCC[C@H]2C(=O)O[C@H]([C@H](C)C[C@@H]2CC[C@@H](O)[C@H](OC)C2)CC(=O)[C@H](C)/C=C(\C)[C@@H](O)[C@@H](OC)C(=O)[C@H](C)C[C@H](C)/C=C/C=C/C=C/1C is reported as 106%.
COc1ccc(CNC(=O)Nc2ncc([N+](=O)[O-])s2)cc1 gave a remaining activity of 99.8%.
With Cc1ccc(NC(=O)c2ccc(CN3CCN(C)CC3)cc2)cc1Nc1nc(-c2cccnc2)cs1 the remaining activity was 101%.
Oc1ccc(-c2nc(-c3ccncc3)c(-c3ccc(F)cc3)[nH]2)cc1 gave a remaining activity of 105%.

Set 4
Target: Max dimerization protein 1, bHLH-zipper, MAX partner unstated (MXD1, Homo sapiens, UniProt Q05195, residues 56-136)
Technique: protein-binding microarray
Molecule type: double-stranded DNA, one strand shown
Sample: in vitro
Concentration: not given
Notes: k-mer, scored over probes, only values ≥0.25
Reading: higher = stronger binding
Target sequence (chain): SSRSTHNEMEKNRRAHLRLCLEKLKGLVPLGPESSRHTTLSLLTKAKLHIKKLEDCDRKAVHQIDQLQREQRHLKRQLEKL
For `GCCCCCAC`, the E-score was 0.257.
`ACATGCCA` has an E-score of 0.381.
`ACCGCGTG` has an E-score of 0.454.
The E-score of `CACGAGTG` is reported as 0.386.
For `CATGCTCA`, the E-score was 0.351.
For `CCTCCCCA`, the E-score was 0.375.
The E-score of `AGTAGGGG` is reported as 0.259.
`AAATAGCG` gave an E-score of 0.257.
